# Experimental data pooled from the literature.
# Each numbered part is a random draw from the data of one study; scales do not carry over between parts. Substitutions count along the parent as printed.

# Set 1
# Target: ABI1, truncated, D143A, DHFR fusion (Arabidopsis thaliana)
# Technique: DHFR PCA, deep sequencing
# Matrix: yeast
# Notes: methotrexate growth selection, single substitutions
# Added: (+)-ABA 200 µM
# Baseline: wild-type fitted maximum
# Reading: higher = stronger binding
# Parent: PYL1, truncated, DHFR fusion (Arabidopsis thaliana); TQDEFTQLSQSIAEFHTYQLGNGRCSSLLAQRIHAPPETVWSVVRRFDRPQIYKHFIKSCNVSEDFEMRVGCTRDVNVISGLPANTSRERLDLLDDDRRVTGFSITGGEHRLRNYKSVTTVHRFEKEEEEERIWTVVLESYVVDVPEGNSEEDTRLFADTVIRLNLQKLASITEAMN
Substitution,relative binding score [%]
T39A,98.3
E151T,93.4
V76F,18.8
I105E,-2.93

# Set 2
# Target: CRIPT, C-terminal peptide
# Technique: DHFR complementation, deep sequencing
# Matrix: yeast
# Notes: single substitutions, model-inferred values
# Baseline: wild type
# Reading: higher = weaker binding
# Parent: ERBIN, PDZ domain 1 (human); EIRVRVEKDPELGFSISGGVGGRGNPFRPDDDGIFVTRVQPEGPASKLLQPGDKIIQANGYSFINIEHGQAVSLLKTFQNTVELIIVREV; partner TKNYKQTSV
Substitution,binding free energy change [kcal/mol]
K54V,0.669
V72D,1.56
R5G,0.102

# Set 3
# Target: CCND1, cyclin fold, Cln2 fusion (human)
# Technique: yeast growth competition, sequencing
# Matrix: yeast
# Notes: strong parent motif
# Baseline: not given
# Reading: higher = stronger binding
# Parent: INSM1 docking peptide (human); PKAIRKLHFEDEV
Substitution,normalised enrichment score
D11R,1.83
I4N,2.12
I4Y,1.02
H8D,5.39
H8F,4.79

# Further values, each from its own experiment
Molecule,target,test,system,conditions,scale,quantity,result
"PhoQ, residues 284 288 289 292 302 303 NLMGRA","PhoP, residues 12 14 15 18 19 VQGLL (Escherichia coli, UniProt P23836)","Sort-seq, refers to: YFP reporter",E. coli,"PhoQ-PhoP variant library, added: 10 µM Mg2+","baseline: high Mg2+ state, higher = stronger signaling",fold induction,16.1
